Experimental data pooled from the literature.
Compare with care: the assays were run in different laboratories. “And” joins repeats or separate records; there may be more than shown. Numbers after ± are the reported error. Values after ≈ are worked out from the molar mass of the structure shown.

| Structure (SMILES) | organism | test | system | conditions | scale | quantity | value |
| --- | --- | --- | --- | --- | --- | --- | --- |
| O=C1c2c(O)cccc2Cc2cccc(O)c21 | SARS-CoV-2 | viral replication, high-content imaging screen | – | cell-based | – | EC50 | > 100 µM |
| O=c1ccn([C@@H]2O[C@](F)(CO)[C@@H](O)[C@H]2O)c(=O)[nH]1 | Crimean-Congo hemorrhagic fever virus | – | recombinant reporter | concentration not given | – | viral replication | inhibited |
| Cc1ccc(-c2cccc(CN3CCCC(c4nc5ccc(C)cc5c(=O)[nH]4)C3)c2)c(C)c1 (stereo not drawn) | SARS-CoV-2 | cytopathic effect, cell-based CPE | USA_WA1/2020 | round 2, 5-point dilution | – | AC50 | 10 µM |
| CNc1cc(C)nc(N2C[C@@H]3NC(=O)CCCNC(=O)c4cccc(c4)-c4cccc(c4)CO[C@H]3C2)n1 | Lassa mammarenavirus | viral replication | Huh-7 | concentration not given | – | Emax | 98.3% |
| CN1CCN(C(c2ccccc2)c2ccccc2)CC1 | Marburg virus | pseudovirus entry | A549 | – | relative to: CC50 over IC50 | selectivity index | > 5 |
| Cc1csc(SCC(=O)NC2CCCc3c2cnn3-c2cccc(C)c2C)n1 (stereo not drawn) | Lassa mammarenavirus | viral replication | Huh-7 | 10 µM, 72 h | – | remaining activity | 44% |
| Cc1ccc(-c2nc(C[S+]([O-])CC(=O)N3CCN(c4ccc(Cl)cc4)CC3)c(C)o2)cc1 (stereo not drawn) | SARS-CoV-2 | cytopathic effect, cell-based CPE | USA_WA1/2020 | round 1, 5-point dilution | – | AC50 | 3.55 µM |
| O=C1c2c(O)c(=O)ccn2N([C@@H]2c3ccccc3SCc3c2ccc(F)c3F)[C@@H]2COCCN12 | Influenza A virus | viral replication, plaque reduction | A(H7N1) | mean | – | EC50 | 0.00023 ± 2e-05 µM |
| CCc1c(C(=O)C(N)=O)c2c(OCC(=O)O)cccc2n1Cc1ccccc1 | Daboia russelii | – | C2C12 | 100 µM, with: Daboia russelii venom RJ | relative to: venom alone | viability difference | -25.3% |
| CCc1ccc(Sc2cc(C(=O)NCCCN3CCC(C)CC3)c3ccccc3n2)cc1 | SARS-CoV-2 | cytopathic effect, cell-based CPE | USA_WA1/2020 | – | – | AC50 | 7.94 µM |
| Nc1ncnc2c([C@@H]3N[C@H](CO)[C@@H](O)[C@H]3O)c[nH]c12 | Junin virus | viral replication | HeLa, Romero | 0.8 µM | – | inhibition | 4.7% |
| COC(=O)[C@@H](N)Cc1ccc(OP2(=O)CO[C@@H](Cn3ccc(N)nc3=O)CO2)cc1 (stereo partly drawn) | vaccinia virus | viral replication | – | – | – | IC50 | 4 µM |
| O=C(Nc1ccc(N2CCN(C(=O)c3cnccn3)CC2)nc1)c1ccc(Cl)cc1 | Mycobacterium tuberculosis | bacterial growth | H37Ra-lux | 168 h | – | IC90 | > 64 µM |
| CNC(=O)[C@@H](NC(=O)[C@H](CC(C)C)[C@H](O)C(=O)NO)C(C)(C)C | Daboia russelii | – | C2C12 | 100 µM, with: Daboia russelii venom GA | relative to: venom alone | viability difference | -23.3% |
| Cc1cccc(CN2CCN(C(c3ccccc3)c3ccc(Cl)cc3)CC2)c1 (stereo not drawn) | Marburg virus | pseudovirus entry | A549 | – | relative to: CC50 over IC50 | selectivity index | 6 |
| CCCCNC(=O)C1CCCN(Cc2nc(-c3ccc(Cl)cc3)oc2C)C1 (stereo not drawn) | SARS-CoV-2 | cytopathic effect, cell-based CPE | USA_WA1/2020 | round 2, 5-point dilution | – | AC50 | 12.6 µM |
| CC(C)Oc1cccc2c1c(NC(=O)c1ccn(C)c(=O)c1)nn2-c1ccc(F)cc1 | Lassa mammarenavirus | viral replication | Huh-7 | 10 µM, 72 h | – | remaining activity | 13% |
| CC(C)=CCc1c(O)ccc(C(=O)/C=C/c2ccc(O)cc2)c1O | SARS-CoV-2 | viral replication | Vero E6 | 12.5 µM | relative to: mean of replicates | CPE inhibition | 0% |
| CCC(CC)COC(=O)[C@H](C)N[P@](=O)(OC[C@H]1O[C@@](C#N)(c2ccc3c(N)ncnn23)[C@H](O)[C@@H]1O)Oc1ccccc1 | SARS-CoV-2 replicon | N-HiBiT luminescence | HeLa | 0.05 µM | relative to: DMSO | replicon activity | 133% and 160% and 127% and 89.1% and 138% |
| [O-][N+]1=C(c2ccc(Cl)cc2)C2=NCCN2c2ccccc21 | Clostridium perfringens | – | – | – | – | MIC90 | 1 µg/mL (≈ 3.36 µM) |
| O=C(Nc1ncc(Cc2cccc3ccccc23)s1)C(F)(F)F | Histoplasma capsulatum | microbial growth | – | – | – | MIC | > 20 µM |
| COc1ccc2cc(-c3n[nH]cc3CNC3(c4ccccc4)CC3)ccc2c1 | Lassa mammarenavirus | viral replication | Huh-7 | 10 µM, 72 h | – | remaining activity | 49% |
| COC(=O)N[C@H](C(=O)N1CCC[C@H]1c1ncc(-c2ccc3cc(-c4ccc5nc([C@@H]6CCCN6C(=O)[C@@H](NC(=O)OC)C(C)C)[nH]c5c4)ccc3c2)[nH]1)C(C)C | SARS-CoV-2 | viral replication, high-content imaging screen | – | cell-based | – | EC50 | > 100 µM |
| O=C(/C=C/c1ccc(O)c(O)c1/C=C/c1ccc(O)c(O)c1)O[C@H](Cc1ccc(O)c(O)c1)C(=O)O | SARS-CoV-2 | viral replication | Vero E6 | 1.562 µM | relative to: mean of replicates | CPE inhibition | 0% |

| Structure (SMILES) | organism | test | system | conditions | scale | quantity | value |
| --- | --- | --- | --- | --- | --- | --- | --- |
| COc1ccc(Nc2nc(Nc3ccc(OC)cc3OC)nc(N3CCOCC3)n2)c(OC)c1 | SARS-CoV-2 | cytopathic effect, cell-based CPE | USA_WA1/2020 | round 2, 5-point dilution | – | AC50 | 3.16 µM |
| COc1ccc(C[C@@H]2c3cc(Oc4cc(C[C@@H]5c6cc(O)c(OC)cc6CCN5C)ccc4O)c(OC)cc3CCN2C)cc1 | Severe acute respiratory syndrome coronavirus 2 | cytopathic effect, inhibitor | Vero C1008 | 100 µM | – | inhibition | 93.3% |
| Cn1c(=O)ccc2ccc(F)c(CCNC[C@H]3CN(c4cnc5c(n4)NC(=O)CO5)C(=O)O3)c21 | Ralstonia pickettii | – | – | – | – | MIC90 | 0.06 µg/mL (≈ 0.128 µM) |
| Cn1cnc(Cn2c(=O)[nH]/c(=N\c3cc4cn(C)nc4cc3Cl)n(Cc3cc(F)c(F)cc3F)c2=O)n1 | Severe acute respiratory syndrome coronavirus 2 | viral replication | Vero C1008 | 5.716 nM | – | inhibition | 0% |
| Cc1nc2n(n1)CC(=O)N[C@@H](C(C)C)CN(C(=O)c1cc[nH]c1)CC(=O)N[C@@H](CC(C)C)c1nc(cs1)C(=O)N[C@H]2Cc1ccccc1 | Lassa mammarenavirus | viral replication | Huh-7 | 10 µM, 72 h | – | remaining activity | 87% |
| Cc1cc2cc(Oc3ccnc(Nc4cccc(CS(=O)(=O)NCCN(C)C)c4)n3)ccc2[nH]1 | SARS-CoV-2 | viral replication, high-content imaging screen | – | cell-based | – | EC50 | > 50.1 µM |
| Cc1[nH]c2c(c1C(=O)NC(C)c1cnn(-c3ccccc3)c1C)C(=O)CCC2 (stereo not drawn) | Lassa mammarenavirus | viral replication | Huh-7 | 10 µM, 72 h | – | remaining activity | 55% |
| OC(CNCC(O)C1CCc2cc(F)ccc2O1)C1CCc2cc(F)ccc2O1 (stereo not drawn) | SARS-CoV-2 | viral replication, high-content imaging screen | – | cell-based | – | EC50 | > 100 µM |
| CC(C)C[C@@H]1NC(=O)c2coc(n2)[C@H](Cc2ccccc2)NC(=O)CN(C(=O)CN(C)C2CCCC2)CCNC(=O)c2csc1n2 | Lassa mammarenavirus | viral replication | Huh-7 | concentration not given | – | Emax | 98.4% |
| O=C(NCC1CCOC2(CCN(C(=O)C3(c4ccccc4)CCCC3)CC2)C1)c1ccccn1 (stereo not drawn) | Venezuelan equine encephalitis virus | viral replication | – | – | – | EC50 | 12.6 µM |
| COc1ccc2c(c1)N(CCCN(C)C)c1ccccc1S2 | SARS-CoV-2 | viral replication, GFP plate reader screen | – | cell-based | – | EC50 | > 20 µM |
| O=C(Nc1ccc(N2CCCN(C(=O)c3cnccn3)CC2)nc1)c1c(F)cccc1Cl | Mycobacterium tuberculosis | bacterial growth | H37Ra-lux | 168 h | – | IC90 | > 64 µM |
| CCC1(CC)C(=O)NCC(C)C1=O (stereo not drawn) | SARS-CoV-2 | viral replication, GFP plate reader screen | – | cell-based | – | EC50 | 18.4 µM |
| Nc1ccn([C@@H]2O[C@H](CO)[C@@H](O)[C@H]2F)c(=O)n1 | Lassa virus | viral replication | – | concentration not given, compound present throughout time course | – | viral infection | inhibited |
| CCCCN(C)CCNC(=O)c1cc(-c2ccc(Cl)s2)nc2ccccc12 | SARS-CoV-2 | cytopathic effect, cell-based CPE | USA_WA1/2020 | round 1, 5-point dilution | – | AC50 | 4.47 µM |
| N=C(N)c1ccc(C=C2c3ccccc3-c3ccccc32)cc1 | SARS-CoV-2 | viral replication, high-content imaging screen | – | cell-based | – | EC50 | > 100 µM |
| O=C(Nc1cccc(Cl)c1)C1CCCN(Cc2cccc(-c3ccc(F)cc3F)c2)C1 (stereo not drawn) | SARS-CoV-2 | cytopathic effect | USA_WA1/2020 | round 1, 5-point | – | maximum response | 42.1% |
| CC(C)C(=O)Nc1ncc(Cc2cccc3ccccc23)s1 | Histoplasma capsulatum | microbial growth | – | – | – | MIC | 2.5 µM (≈ 0.776 µg/mL) |
| CN1CCCC(CC2c3ccccc3Sc3ccccc32)C1 (stereo not drawn) | SARS-CoV-2 | viral replication, high-content imaging screen | – | cell-based | – | EC50 | > 100 µM |
| Nc1ncnc2c1ncn2[C@@H]1O[C@@H]2COP(=O)(O)O[C@H]3[C@@H](O)[C@H](n4cnc5c(=O)[nH]cnc54)O[C@@H]3COP(=O)(O)O[C@H]2[C@H]1O | Chikungunya virus | upregulated Reactome pathway, RNA sequencing, measured: Cell Cycle, Mitotic (R-HSA-69278) | HFF-1 | – | relative to: CHIKV-infected untreated | fold enrichment | 1.83 |
| CCn1c2ccccc2c2cc(CN3CCN(Cc4cccc(Cl)c4)CC3)ccc21 | SARS-CoV-2 | cytopathic effect, cell-based CPE | USA_WA1/2020 | – | – | AC50 | 14.1 µM |
| O=C(Nc1ccc(N2CCCN(C(=O)c3cnccn3)CC2)nc1)c1ccccc1 | Mycobacterium tuberculosis | bacterial growth | H37Ra-lux | 168 h | – | IC90 | > 64 µM |
| CCCCCCCCCCCCN(C)C(=O)CP(=O)(O)O | Bacillus anthracis | – | Ames/IA | – | – | MIC90 | 0.78 µg/mL (≈ 2.43 µM) |
| CNc1nc(N)ncc1-c1cn([C@@H]2O[C@H](CO[P@@](=O)(N[C@@H](C)C(=O)OC(C)C)Oc3ccccc3)[C@@H](O)[C@@]2(C)F)cn1 | Nipah virus | – | – | concentration not given | – | antiviral activity | inactive |

Some of these lines once more:
| Structure (SMILES) | organism | test | system | conditions | scale | quantity | value |
| --- | --- | --- | --- | --- | --- | --- | --- |
| O=C(/C=C/c1ccc(O)c(O)c1/C=C/c1ccc(O)c(O)c1)O[C@H](Cc1ccc(O)c(O)c1)C(=O)O | SARS-CoV-2 | viral replication | Vero E6 | 1.562 µM | relative to: mean of replicates | CPE inhibition | 0% |
| Cc1[nH]c2c(c1C(=O)NC(C)c1cnn(-c3ccccc3)c1C)C(=O)CCC2 (stereo not drawn) | Lassa mammarenavirus | viral replication | Huh-7 | 10 µM, 72 h | – | remaining activity | 55% |
| COC(=O)[C@@H](N)Cc1ccc(OP2(=O)CO[C@@H](Cn3ccc(N)nc3=O)CO2)cc1 (stereo partly drawn) | vaccinia virus | viral replication | – | – | – | IC50 | 4 µM |
| CC(C)C(=O)Nc1ncc(Cc2cccc3ccccc23)s1 | Histoplasma capsulatum | microbial growth | – | – | – | MIC | 2.5 µM (≈ 0.776 µg/mL) |
| Cc1ccc(-c2nc(C[S+]([O-])CC(=O)N3CCN(c4ccc(Cl)cc4)CC3)c(C)o2)cc1 (stereo not drawn) | SARS-CoV-2 | cytopathic effect, cell-based CPE | USA_WA1/2020 | round 1, 5-point dilution | – | AC50 | 3.55 µM |
| Cc1cc2cc(Oc3ccnc(Nc4cccc(CS(=O)(=O)NCCN(C)C)c4)n3)ccc2[nH]1 | SARS-CoV-2 | viral replication, high-content imaging screen | – | cell-based | – | EC50 | > 50.1 µM |
| COc1ccc2cc(-c3n[nH]cc3CNC3(c4ccccc4)CC3)ccc2c1 | Lassa mammarenavirus | viral replication | Huh-7 | 10 µM, 72 h | – | remaining activity | 49% |
